Published values collected from several papers.
Parts stem from different laboratories: compare values within a part only.

Block 1
Target: Sal-like protein 4, full length isoform A (SALL4, Homo sapiens, UniProt Q9UJQ4, residues 1-1053)
Chain of UniProt Q9UJQ4 (whole entry, looked up): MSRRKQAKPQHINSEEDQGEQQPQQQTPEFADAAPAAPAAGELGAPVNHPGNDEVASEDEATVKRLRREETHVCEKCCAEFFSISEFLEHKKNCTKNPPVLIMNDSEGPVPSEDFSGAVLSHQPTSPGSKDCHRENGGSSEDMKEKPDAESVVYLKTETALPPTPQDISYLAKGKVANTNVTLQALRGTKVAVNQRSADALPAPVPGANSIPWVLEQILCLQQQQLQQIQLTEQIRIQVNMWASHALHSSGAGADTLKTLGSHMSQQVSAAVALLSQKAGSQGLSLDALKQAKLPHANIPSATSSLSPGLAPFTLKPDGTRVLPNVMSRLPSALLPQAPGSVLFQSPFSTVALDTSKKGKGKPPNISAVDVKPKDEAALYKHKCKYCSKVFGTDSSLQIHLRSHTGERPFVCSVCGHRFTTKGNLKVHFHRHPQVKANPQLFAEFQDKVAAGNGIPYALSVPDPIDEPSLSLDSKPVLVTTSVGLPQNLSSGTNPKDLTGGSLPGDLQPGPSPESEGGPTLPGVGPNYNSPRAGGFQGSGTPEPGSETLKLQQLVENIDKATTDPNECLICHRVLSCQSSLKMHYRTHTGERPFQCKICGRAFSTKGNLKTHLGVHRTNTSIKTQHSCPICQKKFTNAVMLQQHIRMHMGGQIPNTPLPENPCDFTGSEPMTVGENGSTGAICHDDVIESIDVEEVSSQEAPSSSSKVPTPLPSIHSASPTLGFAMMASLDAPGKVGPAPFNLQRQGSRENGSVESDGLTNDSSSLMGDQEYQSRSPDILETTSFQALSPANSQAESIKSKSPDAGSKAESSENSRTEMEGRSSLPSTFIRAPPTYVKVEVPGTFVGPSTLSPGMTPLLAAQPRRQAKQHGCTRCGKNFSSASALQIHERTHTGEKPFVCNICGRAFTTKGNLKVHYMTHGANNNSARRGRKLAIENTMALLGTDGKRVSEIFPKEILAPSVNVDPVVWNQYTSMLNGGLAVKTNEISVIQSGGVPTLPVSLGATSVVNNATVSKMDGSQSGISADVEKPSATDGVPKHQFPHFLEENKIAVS
Technique: universal PBM
Form: double-stranded DNA, one strand shown
Sample: in vitro
Concentration: 600 nM
Setting: 8-mer, flanks averaged, mean of replicates
Direction: higher = stronger binding
Sequence	E-score
TATCGTCA	0.134
ACAGAAAG	0.115
TGCGTCCA	-0.274
AACAGCCT	-0.199
AGGTCGCA	-0.0307
TACTACTA	0.264
CACCGAAA	-0.0295
GCAAGCAA	0.0976
ATTGAGGG	-0.128
CATAGCTA	0.0699
AATTAGCC	-0.0282
AAAGCTTG	0.0623
CCCTCCCA	-0.178
ACCGTAAG	0.0219
GTGCAGCA	-0.237
ACCGAATG	0.0545
CATGTGGC	-0.0039
AGTAATAG	0.33
ACCGTTCG	-0.131
AAACCCTG	0.0496
GACTCTAA	0.107
GAAATAGC	0.0851
GAAATCGC	-0.14

Block 2
Target: Centromere-binding protein 1, full length, N-terminal tag (CBF1, Saccharomyces cerevisiae, UniProt P17106, residues 1-351)
Chain of UniProt P17106 (whole entry, looked up): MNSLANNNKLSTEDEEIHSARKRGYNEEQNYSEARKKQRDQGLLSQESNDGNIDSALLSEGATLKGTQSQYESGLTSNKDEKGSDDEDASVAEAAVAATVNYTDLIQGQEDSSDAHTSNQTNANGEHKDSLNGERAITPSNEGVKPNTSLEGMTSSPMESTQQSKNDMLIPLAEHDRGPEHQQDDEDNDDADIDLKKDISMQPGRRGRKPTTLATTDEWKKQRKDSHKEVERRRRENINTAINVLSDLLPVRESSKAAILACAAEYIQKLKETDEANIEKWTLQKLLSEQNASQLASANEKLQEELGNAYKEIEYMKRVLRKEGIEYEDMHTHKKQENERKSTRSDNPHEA
Technique: protein-binding microarray
Form: double-stranded DNA, one strand shown
Sample: in vitro
Concentration: 0.8 µM
Setting: whole 60-bp probe, no competitor
Direction: higher = stronger binding
Shared flanks, not repeated: … GTCTTGATTCGCTTGACGCTGCTG
Sequence	fluorescence intensity [a.u.]
GAAATTATTTGAAGTCACCTGGCCTTATTCAATTAG	1920
GAATTTCCACTAAAACATGTGAAAGTAATTTTCTAG	714
CTAACATAAGTCGGGAACCTGATGCATCATTCTTTC	484
GAAGAAACAGATCTTGATGTTACAGCAAGGTCATAG	507
GAATTATTTACAATTTTCGTGATTCTGTGTAAATAG	538
GAAATAATGAATACGCACATGAAACATAAAGGGTAG	620
CTATTAAATATAAGAATCACCACGTTTCAGGTCTTC	581
CTAAGTAAAGTCGATCACGCCCTGTCAGGAACATTC	902
GAAACTCATTAAAACGGTATCACGTTTAAATATTAG	1840
GAACAGGCAAATATCATGGTGACACGCTTATAGTAG	553
CTATGTACGAGGGTCCACGGGGTAGCAAGCACATTC	586
GAAGCAAAAAGATTTCACGTTGTTCGGGAGGTATAG	555
GAATCATAAGAGAGGAGCGTGATCTGTAATTCCTAG	1490
CTAAGCAAGCCACGCCATGTGATTAACCTTGCTTTC	1680
CTAAAGATCCAAGATACCGTGACATTTCCTATTTTC	685
CTACGATTATCTGATCACATTTAACAGAGAAATTTC	744
CTATACTGCCTTTATCATGTGACTGAACTACGCTTC	3840
GAAATAAGAAACATCCATGTGATAAAACTCCGCTAG	859
CTACAGGCGTACTCTTGTGACGTACCAAAGCGCTTC	530

Block 3
Target: Microphthalmia-associated transcription factor, full length (MITF, Homo sapiens, UniProt O75030-10, residues 1-413)
Technique: protein-binding microarray
Form: double-stranded DNA, one strand shown
Sample: in vitro
Concentration: not given
Setting: k-mer, scored over probes, only values ≥0.25
Direction: higher = stronger binding
Sequence	E-score
GTGACAC	0.328
ACACATG	0.367
CCCATGA	0.411
CATCATG	0.347
CACGTTA	0.298
ACTCACG	0.281
ACACGAG	0.405
ACGAGGG	0.347
ACGTGAC	0.476
CTGTCAC	0.338
GTGATTA	0.287
AAACACG	0.259
ATGCATC	0.298
ACACGGG	0.253
AACGTGA	0.395
GATCATA	0.287
CGTGTGA	0.425
AGACACG	0.298
ATCACAA	0.267
ACATGTG	0.423
CGCGTGC	0.355
CACACAC	0.274
CGCGAGA	0.263

Block 4
Target: Interferon regulatory factor 7, full length, phosphomimetic (IRF7, Homo sapiens, UniProt Q92985, residues 1-503, S101K/S471D/S472D/S475D/S476D/S477D/S483D/S484D/S487D)
Technique: protein-binding microarray
Form: double-stranded DNA, one strand shown
Sample: in vitro
Concentration: 250 nM
Setting: 60-bp whole probe
Together with: salmon DNA 0.4 mg/ml
Reference: random background probes
Direction: higher = stronger binding
Shared flanks, not repeated: GCCTAGCAC … GTCTTGATTCGCTTGACGCTGCTG
Construct (chain): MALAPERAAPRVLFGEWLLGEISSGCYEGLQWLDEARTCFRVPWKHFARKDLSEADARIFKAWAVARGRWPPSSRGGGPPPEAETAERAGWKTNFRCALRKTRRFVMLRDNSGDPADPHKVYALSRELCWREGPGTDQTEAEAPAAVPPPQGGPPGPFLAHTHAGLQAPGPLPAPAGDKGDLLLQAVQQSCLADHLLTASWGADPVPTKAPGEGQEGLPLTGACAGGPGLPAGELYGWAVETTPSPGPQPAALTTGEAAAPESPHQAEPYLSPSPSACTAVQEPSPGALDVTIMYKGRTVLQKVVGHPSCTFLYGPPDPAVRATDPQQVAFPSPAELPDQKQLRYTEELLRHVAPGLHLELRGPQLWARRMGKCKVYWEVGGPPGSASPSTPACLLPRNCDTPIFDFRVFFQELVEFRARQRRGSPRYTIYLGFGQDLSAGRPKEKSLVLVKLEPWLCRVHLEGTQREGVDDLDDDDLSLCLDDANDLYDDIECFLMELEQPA
Sequence	log fluorescence
GACGGTCTCCTACTGCTGTCGTGCTAG	-0.202 z-score
GATGATCTCAGTTTCGAGACGTGCTAG	3.64 z-score
TCATGTCTTCCCCTCTCACTGTGCTAG	0.926 z-score
TTAGGACTGGGTCACGGTTAGTGCTAG	0.522 z-score
GACGGTTTCGGTCTCGTGACGTGCTAG	7.96 z-score
TCAAGTTTACCCATCTCACTGTGCTAG	0.706 z-score
TTCGGTATCCTACTGCTTTAGTGCTAG	0.155 z-score
TTAGGTCGCCTTCTCCTTTAGTGCTAG	-0.0303 z-score
TTAGAACTGAGTACCGATTAGTGCTAG	0.256 z-score
TTAGGTTTTGGTTTCGGTTAGTGCTAG	10.7 z-score
GACGGTCTCGGTCTCGGCACGTGCTAG	0.704 z-score
TCAATTTTGAGACTCATACTGTGCTAG	0.275 z-score
ACCCTTGAGTGGTCCAGAGTGTGCTAG	-0.702 z-score
TTCGGACTGGGTATCGGTTAGTGCTAG	0.223 z-score
GACGGTCTCCGTTTCCTGACGTGCTAG	1.99 z-score
AACGGTTTCCTTATCCTGACGTGCTAG	3.09 z-score
GACGAACTGAGGATCGAGACGTGCTAG	-0.231 z-score
TTCGATTTCGGGACTGGATTAGTGCTA	0.845 z-score
TAGACTCTGTGCTTTCCTCGTGTGCTA	0.254 z-score
GACGGTATCCTTACCCTGACGTGCTAG	-0.241 z-score
GACGATTTCCGGACTGGAGACGTGCTA	0.0779 z-score
GACGGACTGGGTCTCGGGTCGTGCTAG	0.806 z-score

Block 5
Target: RNA binding protein fox-1 homolog 2, RRM domain, GST-SBP tag (RBFOX2, Homo sapiens, UniProt O43251-10, residues 100-194)
Technique: RNA Bind-n-Seq
Form: RNA
Sample: in vitro
Concentration: 365 nM
Setting: natural RNA segment, single round, ends assumed
Reference: no-protein control
Direction: higher = stronger binding
Shared flanks, not repeated: GGGAGUUCUACAGUCCGACGAUC … UGGAAUUCUCGGGUGCCAA
Residues (chain): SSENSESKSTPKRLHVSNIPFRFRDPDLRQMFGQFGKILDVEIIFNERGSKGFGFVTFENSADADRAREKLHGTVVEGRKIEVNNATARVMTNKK
Sequence	RBNS enrichment (R)
CUUGAGAAUUUCAUGAGCACUUUAAAAUCUGAACUUUCAAAGCUUGCUAUUAAAUCAUUUAGAAUGUUUACAUUUACUAAGGUGUGCUGGGUCAUGUAAAAUAUUAGACA	1.22
AAGUGUGGAUGCAGAGAGGUGGAGCCCAGGAAGGGUCUCUGCUUAGGCUGCAGGGGUGCCAAUGGCAGAGGCACUGGUAGAGAUCAUUUGGACACUGGAGUUGAAAGUUA	1.52
GUGGCUGCUGCUGGCCUCCCUGCAAGUCCCCUCUUCUUCCUGUUGCGUGCCUGGACUCAGGAGCAUAGAAAAGACAAUUGUGGAUUGGGCCACACUGGCCUAGCCUGAAC	1.51
AUGCUGUGGUUUAACAUUGACACUUAAAGCAUGUGGUCACUGGGAAGGAUUGUAAUGUCAGCAGGUGUUGCCUGAAAGAGUUCUGUGUAGACACUUCUGGGACGUUGCUG	2.06
UCUCUUUCGUGCUGCAUGCACAUUUAUCCAACACUCACGGGUUGUUUGGGAAAAAGUACCAGCAAUGAUGUCGAUGUUAAUAAUACUUCAUAAUUGAUAUCUUAUAGCUU	0.558
UUUGAGAAUUUUUUUUGUACAGCAUUCAUGUGUGAUAUUUUCCAGAUUUGUUGGAUCUAUUUGGUUUAAAAAGUAUUCUAUCUUAAGGCCAACUAAUAUAAAAUACCAUU	0.837
GUCUUCGUGCUGUGUCUCAUGGGUUUCCAUAGUGAUAAAGACAAGGAAACGCUGCAGGGGCCACAGGCACAGGCUGAUAUUUAAAGAUCUUUGCUUGCAGCCCUCCGUCC	0.286
GGCCAGGGCUGCGGGGCUGGCGCAAUCCCAGCCCCCUUCCCCGGGCCACGGGGCCUUGGGUCCCUGCCCUCCCACCCAGGUUUGGUUCCUCCCGGGGCCCCCACUGUGGA	0.185
AGUAUAACCAGCUGAAGUUGCAGAUGUUAGAUAUUUUUCAUAAACAAGUUCGAGUCAAAGUUGAAAAUUCAUAGUAAGAUUGAUAUCUAUAAAAUAGAUAUAAAUUUUUA	0.622
UAUGCAUGUUCCUUUCAUGUGUAUUUAAUCAUGAUGUUUAAUUUUGCACACUUAUUUGUAAUGUUUCUUUUAAAUAAAAGUGACUAAUUUUGUUGUAGUCUGGACCUGUA	0.572
AUUAAUUUUCAAAAAAAAGUUUUUAUAAUGAAGUUGUUUAUUAAAAACUUCUGAAUGAUGUGCUUUGAGUUUUGAACUUGUUUAUUUGGGGAGGGUUGCAGUGAGCCAGA	1.21
AGACAUUUUUCCUGUUUUAGAAAAUAUAGCCCUUGUUUGGAUUACUGCUGUCUGAGCACUAGAAAUUUCUAAUGGAAAGAGGCCUCUGAAUGGCUAAGGGAACAUCUGGA	0.305
